Results of several laboratories.
Several values in a cell are separate wells, animals, samples, runs or records. Numbers after ± are the reported error.

With `CC(C)c1ccc(N(C)c2ccc3c(c2)OCC[C@H]3CNc2cnccc2C(=O)O)cc1` the IC50 was 0.00991 µM (BFTC-905; cell viability, CellTiter-Glo; 7 days).
`COc1ccc(C([O-])=CC(=O)c2ccc(C(C)(C)C)cc2)cc1.[Ru+2].c1ccc(-c2cccc(-c3ccccn3)n2)nc1.c1cnccn1` gave a phototoxicity index of 9.3 (DU-145; baseline: dark IC50 over light IC50).
`CCN(C(=O)c1cc(F)ccc1Oc1nncnc1N1CCC2(C1)CN([C@H](CCCN(C)CCOC)C(C)C)C2)C(C)C` has a GI50 of greater than 10 µM (Granta-519; cell growth or viability; 7 days).
`O=S1(=O)CC2CCCCC2CS1` (stereo not shown) has a viability of 28.8% (MDA-MB-468; MTT; 1.56 µM, 72 h).
`c1ccc2c(Cc3c(-c4c[nH]c5ccccc45)[nH]c4ccccc34)c[nH]c2c1` — result for IL-1β induction: “increased” (human monocytes; 5 µM; baseline: DMSO).
For `CC[C@H]1CN([C@@H](CC)c2ccc(C(F)(F)F)cc2)[C@H](CC)CN1c1nc(=O)n(C)c2ccc(C#N)nc12`, the EC50 was 0.001 µM (SAOS-2; T cell tumour killing; 72 h, with: T cells, NY-ESO-1 TCR, effector:target 1:2).
`O=C(C[Se]C(=O)c1ccccc1Nc1cccc(C(F)(F)F)c1)Nc1cccc(C(F)(F)F)c1` — result for “mean growth percent”: -63.4% (NCI60 colon subpanel; cell growth; 10 µM, 48 h, one-dose).
`CNS(=O)(=O)Nc1nccc(Cc2c(C)c3ccc(Oc4ncccc4F)cc3oc2=O)c1F` gave an IC50 of greater than 1 µM (Caov-3; cell viability; 7 days).
The IC50 of `CCOc1cncc(-c2ccc(NC(=O)C3(c4ccnc(NS(=O)(=O)C5CC5)n4)CCOCC3)nc2)n1` is reported as 0.054 µM (OE21; cell proliferation, CellTiter-Glo; 72 h, Oesophagus cancer).
For `Cn1c(-c2ccc(F)cc2)n[nH]c1=S`, “frequency of myotubes above 10 nuclei” read “increased” (C2C12 CELF1-overexpressing cells; myogenic differentiation, MF20 immunostaining; 10 µM, day 6).
With `COC(=O)c1cc(NC2=NC(=O)C(=Cc3ccc(C)cc3)S2)ccc1OC(C)=O` the metabolite level was 0.3 fold change (MCF7; GC-MS, item: Palmitic acid; 1 µM; baseline: DMSO).
`O=C(C[Se]C(=O)c1ccccc1Nc1ccccc1)Nc1cccc(C(F)(F)F)c1` has a mean TGI of 7.38 µM (NCI60 colon subpanel; NCI60 five-dose screen).
For `CCn1nc(Cl)c2c1-c1cnc(N)c(c1)O[C@H](C)c1cc(F)ccc1-c1nn(C)cc1C2`, the IC50 was 0.181 µM (Ba/F3 TPM3-TRKA; cell viability).
`CNC(=O)CCN(Cc1ccc(C(F)F)cc1)C(=O)c1cc2c(OC)ccc(-c3ccc(=O)n(C)c3)c2s1`: “log2 fold change” -2.93 (murine AML cells; BRD4 chromatin occupancy, ChIP-seq, item: Cd47 locus; concentration not given; baseline: DMSO).
`Cc1ncsc1-c1ccc(C(C)NC(=O)C2CC(O)CN2C(=O)C(NC(=O)CCCCCCCCCCN2CCCC(Nc3ncc(Cl)c(Nc4ccccc4S(=O)(=O)C(C)C)n3)C2)C(C)(C)C)cc1` (stereo not shown) — result for “log2 fold change”: -1.42 (22Rv1; RNA-seq, item: MNX1-AS1; concentration not given; baseline: DMSO).
The EC50 of `NC(Cc1ccccc1)C(=O)N1CC(=Cc2ccc(Cl)c(Cl)c2)C(=O)C(=Cc2ccc(Cl)c(Cl)c2)C1` (stereo not shown) is reported as 1.98 µM (BRD4-HiBiT cells; BRD4 degradation rescue, inhibitor; 4 h, 50% degradation rescued, with: dBET6 500 nM).
For `C=CC(=O)N1[C@@H](c2ccc3c(c2)OCO3)c2[nH]c3ccccc3c2C[C@H]1C(=O)NC1CC1`, “mean neuron degeneration” read 42.1% (rat DRG neurons; 3.333 µM, 48 h, with: vincristine 40 nM).
`O=C(O)C1OC(Oc2cc(O)c3c(=O)c(O)c(-c4ccccc4)oc3c2)C(O)C(O)C1O` (stereo not shown) has a Jmax of 31.4 ± 2.1 pmol/mg/min (MDCKII-UGT1A1/MRP2 cells; glucuronide efflux, substrate).
For `COc1ccccc1-c1ccncc1C(=O)Nc1nnc(OCc2ccc(Cl)cc2)s1`, the colony count was 16.5 and 25 and 15 (DLD-1 BRCA2-/-; 2 µM, mean of replicates).
`Cn1ncc2cc(-c3cncc(Cl)c3N3CCC4(CCNC4=O)CC3)ccc21` — result for “log2 fold change”: -1.4 (LS174T; gene expression, microarray, item: RRM2 mRNA; concentration not given, 4 h; baseline: untreated cells).
`CCn1ccc(C2CCCN2S(=O)(=O)c2cc(C)c(C)cc2C)n1` (stereo not shown) gave an inhibition of less than 0.5% (human monocytes; phagocytosis of anti-D RBCs; 5 µM, lab-synthesized sample).
`CN(C)c1ccc(-n2cc(COC(=O)[C@]3(C)C=C(C(=O)OC(C)(C)C)C(=O)CC3)nn2)cc1` has a pERK/ERK ratio of 0.19 (HeLa; quantitative western blot; concentration not given, 7 (unit not given), with: EGF).
`COc1cc(N2CCN(C(=O)C3CCCN3)CC2)ccc1Nc1ncc(Cl)c(Nc2ccccc2P(C)(C)=O)n1` (stereo not shown) — result for “late apoptotic cells”: 3.1% (Ba/F3 EML4-ALK; annexin V flow cytometry; concentration not given, 1 h).
For `COC1=C2CC(C)CC(OC)C(O)C(C)C=C(C)C(OC(N)=O)C(OC)C=CC=C(C)C(=O)NC(=CC1=O)C2=O` (stereo not shown), “log fold change” read -0.702 (Rh30; ChIP-seq, item: H3K36me3 peak; concentration not given, promoter-TSS chr11:62617800-62624399; baseline: untreated control).
Under “log2 fold change”, `CN1CCCNC(=O)c2cccc(c2)C(=O)NCCCN(C)CCCNc2cccc3c2C(=O)c2cccc(c2C3=O)NCCC1` is recorded as -0.792 (SAS; RNA-Seq, item: SH3PXD2A mRNA; 1 µM, 6 h; baseline: untreated cells).
With `Cc1ccncc1.[Cl-].[Cl-].[Ru+2].c1cc(-c2ccc3cccnc3n2)nc(-c2ccc3cccnc3n2)c1.c1ccc2cc3nc4c5cccnc5c5ncccc5c4nc3cc2c1` the EC50 was 0.595 ± 0.005 µM (SK-MEL-28; photocytotoxicity; visible light 400-700 nm, 100 J/cm2, oxygen 18.5%).
Under “basal short-circuit current”, `CC[C@H](C)C(=O)O[C@H]1C[C@@H](C)C=C2C=C[C@H](C)[C@H](CC[C@@H]3CC=CC(=O)O3)[C@H]21` is recorded as “no effect” (T84; 0.1 and 5 µM).
The colony survival of `CO[C@@H]1[C@@H](OC(N)=O)[C@@H](O)[C@H](Oc2ccc3c(O)c(NC(=O)c4ccc(O)c(CC=C(C)C)c4)c(=O)oc3c2C)OC1(C)C` is reported as 88.6% (HCT-116 BRCA2 wild-type; 50 µM, replicate B; baseline: untreated).
The Jmax of `O=C(O)C1OC(Oc2ccc3c(=O)c(O)c(-c4ccccc4)oc3c2)C(O)C(O)C1O` (stereo not shown) is reported as 25.6 ± 1.01 pmol/mg/min (MDCKII-UGT1A1/MRP2 cells; glucuronide efflux, substrate).
The LDH release of `CC(=O)N[C@@H](Cc1ccc(O)cc1)C(=O)N1CSC[C@H]1C(=O)N[C@@H](C)C(=O)N[C@@H](CC(=O)O)C(=O)COC(=O)c1c(C)cccc1C` is reported as 49.4% and 42.8% and 45.4% (THP-1 cells expressing FKBP-caspase-11; pyroptosis, inhibitor; concentration not given, with: B/B dimerizer).
With `COc1cccc(OC)c1-c1cc(C(=O)NC2(C(=O)O)C3CC4CC(C3)CC2C4)nn1-c1ccc(C(=O)NCCNC(=O)[C@H](CCCCNC(=O)[C@H](CC(C)C)NC(=O)C2OC2C(=O)O)NC(=O)CN2CCN(CC(=O)[O-])CCN(CC(=O)[O-])CCN(CC(=O)[O-])CC2)cc1C(C)C.[177Lu+3]` (mixture of isomers) the surface-bound fraction was 1.55 ± 0.22% (HT-29; concentration not given, 240 min; baseline: added activity).

Some of these lines once more:
The IC50 of `CCOc1cncc(-c2ccc(NC(=O)C3(c4ccnc(NS(=O)(=O)C5CC5)n4)CCOCC3)nc2)n1` is reported as 0.054 µM (OE21; cell proliferation, CellTiter-Glo; 72 h, Oesophagus cancer).
For `Cn1c(-c2ccc(F)cc2)n[nH]c1=S`, “frequency of myotubes above 10 nuclei” read “increased” (C2C12 CELF1-overexpressing cells; myogenic differentiation, MF20 immunostaining; 10 µM, day 6).
With `COC(=O)c1cc(NC2=NC(=O)C(=Cc3ccc(C)cc3)S2)ccc1OC(C)=O` the metabolite level was 0.3 fold change (MCF7; GC-MS, item: Palmitic acid; 1 µM; baseline: DMSO).
